# Measurements of several laboratories.
# A part holds a random share of what one study measured. Positions count from the first letter of the parent shown.

# Study 1
# Target: Prothrombin, mature alpha-thrombin (F2, Homo sapiens, UniProt P00734)
# Technique: aptamer microarray, sandwich
# Form: DNA with 2'F-ANA
# Sample: in vitro
# Tested at: 200 nM
# Notes: whole 15-mer aptamer, many near background
# With: Cy3 exosite-II aptamer, 400 nM
# Reading: higher = stronger binding
# Sequence: GGTTGGTGTGGTTGG
Modification,mean fluorescence intensity
2'F-ANA at 1 2 3 8 9 14 15,76 a.u.
2'F-ANA at 1 2 4 5 7 10 12 14 15,72.8 a.u.
2'F-ANA at 5 6 10 13 14 15,52.2 a.u.
2'F-ANA at 1 3 5 6 8 9 13,52.3 a.u.
2'F-ANA at 1 3 4 5 9 11 14 15,42.9 a.u.
2'F-ANA at 2 3 7 10 12 14,329 a.u.
2'F-ANA at 5 6 7 8 10 11 12 13 15,66.6 a.u.
2'F-ANA at 2 5 8 9 11 13 14 15,45.1 a.u.
2'F-ANA at 1 2 4 7 9 12 14 15,56.6 a.u.
2'F-ANA at 1 6 7 9 10 12 13 14,53.2 a.u.
2'F-ANA at 2 4 9 10 12 14 15,63.4 a.u.
2'F-ANA at 3 4 5 7 8 11 15,85 a.u.
2'F-ANA at 2 4 5 11 12 15,96.1 a.u.
2'F-ANA at 1 4 5 6 12 14,42.7 a.u.
2'F-ANA at 1 3 5 7 8 10 13 14 15,45.9 a.u.
2'F-ANA at 1 4 5 7 8 10,46.6 a.u.
2'F-ANA at 1 2 5 8 9 14,47.2 a.u.
2'F-ANA at 1 3 4 5 6 8 9 10 11 15,47 a.u.
2'F-ANA at 1 2 6 7 12 14 15,62.5 a.u.

# Study 2
# Target: Centromere-binding protein 1, full length, His-tagged (CBF1, Saccharomyces cerevisiae, UniProt P17106, residues 1-351)
# Chain of UniProt P17106 (whole entry, looked up): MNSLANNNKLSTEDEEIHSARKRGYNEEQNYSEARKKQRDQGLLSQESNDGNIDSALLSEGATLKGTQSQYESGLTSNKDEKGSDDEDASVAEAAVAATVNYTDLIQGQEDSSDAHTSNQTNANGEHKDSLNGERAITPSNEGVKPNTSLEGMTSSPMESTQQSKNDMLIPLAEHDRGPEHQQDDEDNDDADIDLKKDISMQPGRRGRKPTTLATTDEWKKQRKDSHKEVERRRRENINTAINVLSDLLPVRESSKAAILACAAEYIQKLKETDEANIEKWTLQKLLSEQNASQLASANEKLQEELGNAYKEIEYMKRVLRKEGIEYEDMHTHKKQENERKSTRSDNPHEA
# Technique: competition protein-binding microarray
# Form: double-stranded DNA, one strand shown
# Sample: in vitro
# Tested at: 2 µM
# Notes: whole 60-bp probe, lowest competitor level
# With: Pho4 competitor, 0.05 µM
# Reading: higher = stronger binding
# All sequences stand within: … GTCTTGATTCGCTTGACGCTGCTG
Sequence,fluorescence intensity [a.u.]
CGTCCTAGTGATTGTTTTGTGGGTGCCATGAGGAAG,92.7
GCTTGTGAACAGCGTCACAGATCCAGTTGTAACGAG,73
CTTCTGTAAATTTGGGAAGTGGGTGGACGCGCCCCG,82.4
AAGCAAGGTGATGTTCAGCTGACCGGCAGCATCGGC,145
TGGACAAGACCAAGCCAGGTGACGGAGTTAACGTTG,86.2
TCGCCGATCTCCCCTCACATGTACACTTTTAATCAG,252
TGCGCAACAACTTGTTTTGTGGGTGTATGTCTAGAA,71.9
TCGTACCGAGTGATGAACGTGGTGATGAACACCTTG,76.9
TCTTTCATTAATCGCCACCTGATGTTTTTCGCTGCT,171
ACAATGGTGGGATGGCCCGTGGGTAAGTCGTGTAGT,69.1
CTTTCCCGATCTTGAGAGGTGGGTGTAGCACATTTG,55.4
AATGGAGATATATACTTGATAGCTTTGGATGAATCT,71.9
CATACCCAACCTTGTCATGTGGGTGAAGATATTTGT,224
AGGAATGTTAATTCGCTCGTGCGGACTAATTTTTCC,115
GTAAGTCGTCAAAGGGGCGTGGGTAAGCCATTTCTT,66.9
CGGTTGAGACTTTAGCACGTGCTTTAGTTTATTTAT,3950
CATACCCAACCTTGTGACGTGGGTGAAGATATTTGT,103

# Study 3
# Target: CCNB1, cyclin fold, Cln2 fusion (human)
# Technique: yeast growth competition, sequencing
# Sample: yeast
# Notes: weak parent motif
# Relative to: not given
# Reading: higher = stronger binding
# Starting sequence: RBL1 docking peptide (human); GSAKRRLFGEDPP
Change,normalised enrichment score
GVAKRRLFGEDPP [S2V],0.55
GKAKRRLFGEDPP [S2K],-0.162
GSAERRLFGEDPP [K4E],-0.739
GSAKRILFGEDPP [R6I],0.372
GSAKRRLFGFDPP [E10F],1.31
GSAKRRLCGEDPP [F8C],0.295
GSAKRRLFGIDPP [E10I],1.04
GSAKRRLSGEDPP [F8S],0.069
GSAKRRLFGEGPP [D11G],0.558
GSAKHRLFGEDPP [R5H],0.362
GSAKIRLFGEDPP [R5I],-0.184
GSYKRRLFGEDPP [A3Y],0.771
GSAKRRLRGEDPP [F8R],0.741
GSAKRRHFGEDPP [L7H],-0.408
GSAKRRLFGPDPP [E10P],1.1
GSAKRRLFGEDNP [P12N],0.597
GSAKRYLFGEDPP [R6Y],0.589
GSAKRRLFGEDPI [P13I],0.301
GSAKRDLFGEDPP [R6D],-0.429
GSAKRRLFGEDSP [P12S],1.23
GSRKRRLFGEDPP [A3R],0.494
GSAKRRLFREDPP [G9R],0.962
GIAKRRLFGEDPP [S2I],-0.172
GSAWRRLFGEDPP [K4W],0.619
GSAKRRLFGEDPD [P13D],1.19

# Study 4
# Target: ABI1, truncated, D143A, DHFR fusion (Arabidopsis thaliana)
# Technique: DHFR PCA, deep sequencing
# Sample: yeast
# Notes: methotrexate growth selection, single substitutions
# With: (+)-ABA 17 µM
# Relative to: wild-type fitted maximum
# Reading: higher = stronger binding
# Starting sequence: PYL1, truncated, DHFR fusion (Arabidopsis thaliana); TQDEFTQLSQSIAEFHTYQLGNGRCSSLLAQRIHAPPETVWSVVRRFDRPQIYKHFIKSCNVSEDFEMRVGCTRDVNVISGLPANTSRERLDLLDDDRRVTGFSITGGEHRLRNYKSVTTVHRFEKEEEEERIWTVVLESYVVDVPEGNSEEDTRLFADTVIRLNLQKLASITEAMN; partner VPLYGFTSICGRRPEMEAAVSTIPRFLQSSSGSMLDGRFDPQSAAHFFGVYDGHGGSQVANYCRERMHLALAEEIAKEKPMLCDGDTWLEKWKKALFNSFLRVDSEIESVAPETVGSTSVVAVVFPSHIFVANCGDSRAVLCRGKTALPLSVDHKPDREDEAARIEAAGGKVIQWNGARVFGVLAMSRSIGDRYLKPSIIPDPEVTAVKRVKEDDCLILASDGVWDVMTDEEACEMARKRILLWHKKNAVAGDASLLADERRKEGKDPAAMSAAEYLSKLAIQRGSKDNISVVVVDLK
Change,relative binding score
F103S,2.64%
N165M,-15%
V78S,6.83%
T106E,63.4%
F5S,71.3%
D3M,72.4%
P83D,38.9%
E67T,81.4%
S80I,7.23%
F103W,21.1%
D144E,51.3%

# Study 5
# Target: Histone acetyltransferase KAT6A, both winged helices, GST fusion (KAT6A, Homo sapiens, UniProt Q92794, residues 1-181)
# Technique: protein binding microarray
# Form: double-stranded DNA, one strand shown
# Sample: in vitro
# Tested at: not given
# Notes: 8-mer, flanks averaged, mean of 2 arrays, mostly near background
# Relative to: not given
# Reading: higher = stronger binding
# Residues (chain): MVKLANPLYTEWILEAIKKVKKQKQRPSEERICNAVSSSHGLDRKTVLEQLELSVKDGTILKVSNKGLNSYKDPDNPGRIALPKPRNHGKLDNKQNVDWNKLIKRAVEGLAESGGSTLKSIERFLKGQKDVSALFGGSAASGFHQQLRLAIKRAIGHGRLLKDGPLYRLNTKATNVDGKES
Sequence,E-score
ACGATAGG,-0.0898
AACCCTAA,-0.13
GCACGACC,-0.0858
AGTTTCAA,-0.121
GACAAAAA,0.0325
ATGAGACC,-0.0297
GAGTGCGC,0.187
GCCCCGCC,0.201
ACGCGAGC,0.184
CAATCCGG,0.133
ACTCTCCC,-0.141
AGTTGCTG,0.0453
ATCCAAAT,-0.107
CAATGCTA,-0.132
ATTCGGCA,0.109
CCTTTCCC,0.094

# Study 6
# Target: Interferon regulatory factor 5, full length, phosphomimetic (IRF5, Homo sapiens, UniProt Q13568-2, residues 1-514, K96S/S451D/S453D/S456D/S462D)
# Technique: protein-binding microarray
# Form: double-stranded DNA, one strand shown
# Sample: in vitro
# Tested at: 250 nM
# Notes: 60-bp whole probe
# With: salmon DNA 0.4 mg/ml
# Relative to: random background probes
# Reading: higher = stronger binding
# All sequences stand within: GCCTAGCAC … GTCTTGATTCGCTTGACGCTGCTG
Sequence,log fluorescence
GACGATATCGTGTATCGAGACGTGCTA,1.4 z-score
GACGAACTGGGGTTTCGAGCCGTGCTA,0.363 z-score
TTACAACTGGGGTATCGATTAGTGCTA,2.64 z-score
TCATCTTTCACTACTCCACTGTGCTAG,4.08 z-score
GACGATATCAGCCTCGAGACGTGCTAG,0.269 z-score
GACGGTTTGCTTTCCCTGACGTGCTAG,0.789 z-score
TTAGGTTCCCTTTTCTTTTAGTGCTAG,0.76 z-score
TTAGGTATCCTATTCCTTTAGTGCTAG,0.268 z-score
TTAGATTCCCGTTTCGATTAGTGCTAG,7.33 z-score
TCAGCTATTTTATATGCTACTGTGCTA,0.349 z-score
TTAGGTCTCCAACTGCTTTAGTGCTAG,-0.503 z-score
TTAGTTTTCGGACTGGGTTAGTGCTAG,3.4 z-score
TTGGGTATCGGGTTTCGGTTAGTGCTA,8.24 z-score
GATGAACTGGGGTTTCGAGACGTGCTA,1.14 z-score
GACGGTCTCGGTCTCGGGGCGTGCTAG,0.0577 z-score
TTAGGTATCCTTCTCCTATAGTGCTAG,0.467 z-score
TGGTTTTACTTTCTATCTCTGTGCTAG,5.57 z-score
TTAGATTTCAGACTGGATTGGTGCTAG,0.388 z-score
TTGGGACTGGGGTTTCGGTTAGTGCTA,5.74 z-score
GTAGATGCCTTTCTCTTGGAGTGCTAG,0.0767 z-score
TTAGGACTGGACGCTGGGTTAGTGCTA,-0.456 z-score
TCAGATCTGCCGTCCCACTCAGTGCTA,-0.42 z-score
GAGGGTATCCTTCTCCTGACGTGCTAG,-0.308 z-score
TTAGGATTGGACTTTCGGTTAGTGCTA,9.66 z-score
TTAGGTTTCGGACTGGGTTCGTGCTAG,5.2 z-score
